Results of several laboratories.
Compare with care: the assays were run in different laboratories. Several values in a cell are separate wells, animals, samples, runs or records. ± marks the error that the study gave.
PPARA ligand-binding domain: Peroxisome proliferator-activated receptor alpha, ligand-binding domain (PPARA, Homo sapiens, UniProt Q07869)
UniProt Q07869, sequence (whole entry, looked up): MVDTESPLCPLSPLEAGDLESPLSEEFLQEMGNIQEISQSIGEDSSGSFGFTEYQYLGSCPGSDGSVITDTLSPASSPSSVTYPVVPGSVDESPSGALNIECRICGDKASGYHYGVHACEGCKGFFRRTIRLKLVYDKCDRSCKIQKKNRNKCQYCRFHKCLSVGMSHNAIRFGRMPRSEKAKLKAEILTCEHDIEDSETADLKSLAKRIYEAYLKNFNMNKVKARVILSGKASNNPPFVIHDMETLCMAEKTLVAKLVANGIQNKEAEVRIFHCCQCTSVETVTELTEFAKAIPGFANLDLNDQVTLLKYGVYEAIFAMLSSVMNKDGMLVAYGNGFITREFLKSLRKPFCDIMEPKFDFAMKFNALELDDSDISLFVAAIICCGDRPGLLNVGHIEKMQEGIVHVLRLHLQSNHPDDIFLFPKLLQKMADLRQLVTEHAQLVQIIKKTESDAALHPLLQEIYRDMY
Chymotrypsinogen A: Chymotrypsinogen A (Bos taurus, UniProt P00766)
CHEK1: Serine/threonine-protein kinase Chk1 (CHEK1, Homo sapiens, UniProt O14757)
UniProt O14757, sequence (whole entry, looked up): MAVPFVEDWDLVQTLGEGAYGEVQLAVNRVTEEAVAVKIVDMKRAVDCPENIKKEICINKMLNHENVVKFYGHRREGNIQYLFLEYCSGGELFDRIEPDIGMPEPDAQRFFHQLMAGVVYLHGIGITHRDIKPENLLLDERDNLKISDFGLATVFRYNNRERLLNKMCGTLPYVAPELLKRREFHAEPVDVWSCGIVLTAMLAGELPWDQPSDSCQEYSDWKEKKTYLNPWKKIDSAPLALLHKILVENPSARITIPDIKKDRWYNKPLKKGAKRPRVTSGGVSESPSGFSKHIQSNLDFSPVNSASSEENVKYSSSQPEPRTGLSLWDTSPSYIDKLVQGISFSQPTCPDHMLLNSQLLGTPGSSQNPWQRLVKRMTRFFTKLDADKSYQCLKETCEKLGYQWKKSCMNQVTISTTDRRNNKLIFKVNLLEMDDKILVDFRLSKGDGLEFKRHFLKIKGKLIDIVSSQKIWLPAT
GBA2: Beta-glucosidase (GBA2, Homo sapiens, UniProt Q9HCG7)
UniProt Q9HCG7, sequence (whole entry, looked up): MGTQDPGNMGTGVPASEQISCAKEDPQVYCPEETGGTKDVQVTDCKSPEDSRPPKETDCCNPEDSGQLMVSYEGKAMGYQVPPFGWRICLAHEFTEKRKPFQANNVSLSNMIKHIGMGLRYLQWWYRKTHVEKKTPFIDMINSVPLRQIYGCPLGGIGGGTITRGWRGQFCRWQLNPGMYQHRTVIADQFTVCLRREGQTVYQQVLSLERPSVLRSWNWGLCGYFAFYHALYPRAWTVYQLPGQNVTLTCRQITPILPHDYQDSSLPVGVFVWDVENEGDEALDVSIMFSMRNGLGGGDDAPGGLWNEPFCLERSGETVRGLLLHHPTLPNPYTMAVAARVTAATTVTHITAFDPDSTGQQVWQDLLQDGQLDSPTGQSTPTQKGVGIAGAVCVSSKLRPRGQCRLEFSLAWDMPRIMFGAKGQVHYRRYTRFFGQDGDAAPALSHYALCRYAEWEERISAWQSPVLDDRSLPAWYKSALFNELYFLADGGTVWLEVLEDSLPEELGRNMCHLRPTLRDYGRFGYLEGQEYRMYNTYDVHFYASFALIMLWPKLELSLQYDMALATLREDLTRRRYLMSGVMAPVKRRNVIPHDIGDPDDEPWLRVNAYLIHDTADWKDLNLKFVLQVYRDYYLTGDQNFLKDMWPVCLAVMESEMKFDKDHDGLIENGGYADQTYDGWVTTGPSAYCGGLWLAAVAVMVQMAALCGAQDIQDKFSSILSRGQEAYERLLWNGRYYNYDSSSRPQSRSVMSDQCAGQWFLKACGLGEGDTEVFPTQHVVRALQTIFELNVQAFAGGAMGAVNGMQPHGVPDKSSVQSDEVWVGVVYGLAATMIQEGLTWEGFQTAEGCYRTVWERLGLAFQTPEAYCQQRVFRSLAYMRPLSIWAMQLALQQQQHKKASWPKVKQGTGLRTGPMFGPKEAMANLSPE
CTSB: Cathepsin B (CTSB, Homo sapiens, UniProt P07858)
Sensor histidine kinase AirS: Sensor histidine kinase AirS (Staphylococcus aureus, UniProt Q2FX96)
PIK3CG: Phosphatidylinositol 4,5-bisphosphate 3-kinase catalytic subunit gamma isoform (PIK3CG, Homo sapiens, UniProt P48736)
UniProt P48736, sequence (whole entry, looked up): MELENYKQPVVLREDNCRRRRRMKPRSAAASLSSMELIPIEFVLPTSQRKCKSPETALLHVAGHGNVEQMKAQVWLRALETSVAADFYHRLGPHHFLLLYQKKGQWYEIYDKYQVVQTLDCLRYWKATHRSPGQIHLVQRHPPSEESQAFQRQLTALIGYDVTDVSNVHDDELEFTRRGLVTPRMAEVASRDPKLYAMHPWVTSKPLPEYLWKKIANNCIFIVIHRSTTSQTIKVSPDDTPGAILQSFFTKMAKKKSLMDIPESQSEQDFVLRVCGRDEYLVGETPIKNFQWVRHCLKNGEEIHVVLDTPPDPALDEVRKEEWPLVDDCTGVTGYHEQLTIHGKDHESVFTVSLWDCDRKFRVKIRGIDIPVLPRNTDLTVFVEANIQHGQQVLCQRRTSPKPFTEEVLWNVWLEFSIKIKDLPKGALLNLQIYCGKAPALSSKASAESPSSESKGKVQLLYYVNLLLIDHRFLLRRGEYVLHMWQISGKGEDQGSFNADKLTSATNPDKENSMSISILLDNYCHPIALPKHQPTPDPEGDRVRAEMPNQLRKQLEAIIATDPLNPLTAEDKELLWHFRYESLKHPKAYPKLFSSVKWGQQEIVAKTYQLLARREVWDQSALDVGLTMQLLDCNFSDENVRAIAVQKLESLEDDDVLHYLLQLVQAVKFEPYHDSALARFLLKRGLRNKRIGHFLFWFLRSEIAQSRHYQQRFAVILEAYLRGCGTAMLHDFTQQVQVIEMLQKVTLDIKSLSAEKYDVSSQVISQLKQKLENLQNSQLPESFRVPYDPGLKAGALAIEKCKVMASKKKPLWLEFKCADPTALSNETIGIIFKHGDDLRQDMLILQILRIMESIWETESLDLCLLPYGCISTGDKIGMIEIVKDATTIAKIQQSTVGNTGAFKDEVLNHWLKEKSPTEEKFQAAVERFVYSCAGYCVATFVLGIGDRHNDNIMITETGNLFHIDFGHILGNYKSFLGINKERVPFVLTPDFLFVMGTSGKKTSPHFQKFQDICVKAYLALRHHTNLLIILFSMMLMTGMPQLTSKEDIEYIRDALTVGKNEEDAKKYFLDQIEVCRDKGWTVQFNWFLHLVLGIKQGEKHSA
IAPP: Islet amyloid polypeptide (IAPP, Homo sapiens, UniProt P10997)
UniProt P10997, sequence (whole entry, looked up): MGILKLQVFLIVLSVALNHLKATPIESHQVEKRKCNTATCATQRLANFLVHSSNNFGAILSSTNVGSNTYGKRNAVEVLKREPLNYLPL
UniProt P30874, sequence (whole entry, looked up): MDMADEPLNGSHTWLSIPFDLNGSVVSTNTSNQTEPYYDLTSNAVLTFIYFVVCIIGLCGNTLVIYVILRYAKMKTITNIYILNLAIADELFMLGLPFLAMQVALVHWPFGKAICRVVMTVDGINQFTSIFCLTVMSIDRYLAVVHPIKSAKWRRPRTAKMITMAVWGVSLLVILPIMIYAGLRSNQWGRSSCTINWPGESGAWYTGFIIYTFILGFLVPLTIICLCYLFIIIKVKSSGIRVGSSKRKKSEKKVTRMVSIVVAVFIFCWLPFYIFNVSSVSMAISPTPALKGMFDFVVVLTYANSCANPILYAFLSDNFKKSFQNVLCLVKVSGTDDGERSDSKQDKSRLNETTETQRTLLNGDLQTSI
UniProt Q8TBX8, sequence (whole entry, looked up): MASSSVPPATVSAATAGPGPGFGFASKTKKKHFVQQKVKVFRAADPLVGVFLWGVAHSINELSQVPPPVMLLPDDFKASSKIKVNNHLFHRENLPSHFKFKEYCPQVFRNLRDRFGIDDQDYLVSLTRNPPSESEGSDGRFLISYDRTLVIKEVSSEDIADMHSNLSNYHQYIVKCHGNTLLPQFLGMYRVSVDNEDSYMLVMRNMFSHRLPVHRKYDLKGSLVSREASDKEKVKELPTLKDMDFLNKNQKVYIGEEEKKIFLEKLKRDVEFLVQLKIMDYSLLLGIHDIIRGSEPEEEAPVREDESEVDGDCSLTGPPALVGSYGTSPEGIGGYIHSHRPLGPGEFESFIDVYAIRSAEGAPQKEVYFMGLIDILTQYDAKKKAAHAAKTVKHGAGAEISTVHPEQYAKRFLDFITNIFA
UniProt Q9NSU2, sequence (whole entry, looked up): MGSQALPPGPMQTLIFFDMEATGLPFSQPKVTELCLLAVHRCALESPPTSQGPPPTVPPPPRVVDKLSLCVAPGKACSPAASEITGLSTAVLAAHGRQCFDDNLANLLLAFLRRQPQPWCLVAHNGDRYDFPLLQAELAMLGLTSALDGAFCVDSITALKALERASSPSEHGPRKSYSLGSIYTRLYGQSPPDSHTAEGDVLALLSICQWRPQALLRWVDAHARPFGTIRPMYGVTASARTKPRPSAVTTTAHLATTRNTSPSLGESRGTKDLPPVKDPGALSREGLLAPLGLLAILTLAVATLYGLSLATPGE

SMILES	target	assay	system	setting	IC50
Cc1c(Cc2ccc(OC(C)C(=O)O)cc2)c2ccc(C(=O)N[C@@H](C)c3ccc(C(C)(C)C)cc3)cc2n1C (stereo partly drawn)	PPARA ligand-binding domain	reporter gene, luciferase reporter	HEK293T, Gal4-PPARα LBD	–	2.46 µM
Cc1nn(-c2cccc(N)c2)c(=O)c2cnc(Nc3ccc(N4CCNCC4)cc3)nc12	TXK (Homo sapiens, UniProt P42681)	enzyme activity, inhibitor	–	–	> 10 µM
CC(C)Oc1cccc(NC(=O)C(C(F)(F)F)C(F)(F)F)c1	Chymotrypsinogen A	enzyme activity, inhibitor, fluorescence	–	–	> 100 µM
Nc1ncc2c(n1)-c1c([nH]c3ccc(C4=CCOCC4)cc13)CCC2	PIKFYVE (Homo sapiens, UniProt Q9Y2I7)	enzyme activity, inhibitor, ADP detection	–	–	0.012 µM
O=C(NCCOc1ccccc1NC(=O)C(C(F)(F)F)C(F)(F)F)c1ccccc1	Chymotrypsinogen A	enzyme activity, inhibitor, fluorescence	–	–	69 µM
COc1cc(-c2ccc3c(c2)Nc2cccc(Cl)c2NC3=O)ccc1O	CHEK1	enzyme activity, inhibitor	–	–	> 10 µM
O=C(NCC1CCOCC1)c1n[nH]cc1NC(=O)c1c(F)cccc1F	DYRK1B (Homo sapiens, UniProt Q9Y463)	target engagement in cells, BRET	–	–	2.4 µM
CCCCc1nc2c([nH]1)[C@H](O)[C@@H](O)[C@H](O)[C@H]2O	GBA2	–	HEK293 lysate overexpressing enzyme	pH 5.8, added: 4-MU-β-D-glucopyranoside	> 50 µM
CCOC(=O)/C=C/C(=O)[C@H](CC(C)C)NC(=O)[C@H](Cc1ccccc1)NC(=O)[C@H](Cc1ccccc1)n1cc(CCCCC2=C3C(C)=CC(C)=[N+]3[B-](F)(F)n3c(C)cc(C)c32)nn1 (mixture of isomers)	CTSB	enzyme activity, inhibitor	–	–	4.98 µM
CCCCCCOCCCCCN1C[C@H](O)[C@@H](O)[C@H](O)[C@H]1CO	GBA2	inhibitor, 4MU-β-D-glucopyranoside	HEK293T homogenates overexpressing GBA2	–	0.008 µM
C[C@@H](O)[C@H](NC(=O)[C@@H]1CSSC[C@@H](NC(=O)[C@H](Cc2ccccc2)NC(N)=O)C(=O)N[C@@H](Cc2ccc(NC(N)=O)cc2)C(=O)N[C@H](Cc2c[nH]c3ccccc23)C(=O)N[C@@H](CCCCN)C(=O)N[C@@H]([C@@H](C)O)C(=O)N1)C(N)=O	SSTR2 (Homo sapiens, UniProt P30874)	radioligand binding, inhibitor, competitive radioligand displacement	–	cloned receptor	0.957 µM and 0.405 µM
CCOc1cccc(NC(=O)C(C(F)(F)F)C(F)(F)F)c1	Chymotrypsinogen A	enzyme activity, inhibitor, fluorescence	–	–	> 100 µM
C[C@H](c1ccccc1)N1C(=O)C2=Nc3cccc(Cl)c3CN2C1=S	MAPK14 (Homo sapiens, UniProt Q16539)	enzyme activity, inhibitor	–	–	0.131 µM
OC[C@H]1[C@@H](O)[C@H](O)[C@@H](O)CN1CCCCCOCC1CCCC1	GBA2	inhibitor, 4MU-β-D-glucopyranoside	HEK293T homogenates overexpressing GBA2	–	0.003 µM
CC(C)(C)c1ccc(NC(=O)C(C(F)(F)F)C(F)(F)F)cc1	Chymotrypsinogen A	enzyme activity, inhibitor, fluorescence	–	–	> 100 µM
O=C1NC(=O)C(N2CCc3ccccc32)=C1c1ccccc1	Sensor histidine kinase AirS	autophosphorylation, inhibitor, BODIPY-FL-ATPγS in-gel fluorescence	–	lower bound of confidence interval	> 7.6 µM
OC[C@H]1[C@@H](O)[C@H](O)[C@@H](O)CN1CCCCCOCC(COCCCCCN1C[C@H](O)[C@@H](O)[C@H](O)[C@@H]1CO)C12CC3CC(CC(C3)C1)C2 (stereo partly drawn)	GBA2	inhibitor, 4MU-β-D-glucopyranoside	HEK293T homogenates overexpressing GBA2	–	0.15 µM
CN(C)c1ncnc2c1ncn2[C@@H]1O[C@H](CCl)[C@@H](NC(=O)[C@H](CSC23CC4CC(CC(C4)C2)C3)NC(=O)OC(C)(C)C)[C@H]1O	Aminopeptidase N (ANPEP, Homo sapiens, UniProt P15144)	enzyme activity, inhibitor, fluorescence	–	–	> 100 µM
CN(C1=C(c2ccccc2)C(=O)NC1=O)c1ccc(Cl)cc1	Sensor histidine kinase AirS	autophosphorylation, inhibitor, BODIPY-FL-ATPγS in-gel fluorescence	–	lower bound of confidence interval	> 605 µM
O=C(O)c1cc(C(=O)CC(=O)c2cc(C(=O)O)c(O)c3ccccc23)c2ccccc2c1O	TREX1 (Homo sapiens, UniProt Q9NSU2)	exonuclease activity, inhibitor	–	added: dsDNA substrate	5.13 ± 0.386 µM
OC[C@@H]1[C@@H](O)[C@H](O)[C@@H](O)CN1CCCCCOCc1ccc(-c2ccc3c(c2)OCCO3)cc1	GBA2	inhibitor, 4MU-β-D-glucopyranoside	HEK293T homogenates overexpressing GBA2	–	0.03 µM
Cc1c(Cc2cccc(OC(C)(C)C(=O)O)c2)c2ccc(C(=O)N[C@@H](C)c3cccc(Cl)c3)cc2n1C	PPARA ligand-binding domain	reporter gene, luciferase reporter	HEK293T, Gal4-PPARα LBD	–	11.7 µM
Cc1nc2ccccc2c(=O)n1N	CTSB	enzyme activity, inhibitor	–	–	163 µM
O=C(NCc1ccc(N2CCOCC2)cc1)C(C(F)(F)F)C(F)(F)F	Chymotrypsinogen A	enzyme activity, inhibitor, fluorescence	–	–	> 100 µM

SMILES	target	assay	system	setting	IC50
CCC(O)(C#Cc1ccc2[nH]c3c(c2c1)-c1nc(N)ncc1CCC3)CC	PIP4K2C (Homo sapiens, UniProt Q8TBX8)	target engagement in cells, BRET	–	–	0.58 µM
Cc1c(Cc2cccc(OC(C)(C)C(=O)O)c2)c2ccc(C(=O)N[C@@H](C)c3cccc(C#N)c3)cc2n1C	PPARA ligand-binding domain	reporter gene, luciferase reporter	HEK293T, Gal4-PPARα LBD	–	85.9 µM
O=C(CCc1ccccc1)N1C(=O)C2(NC(c3ccc(F)cc3)C3(C(=O)Nc4ccccc43)N2Cc2ccc(F)cc2)c2ccccc21 (stereo not drawn)	PIK3CG	enzyme activity, inhibitor, ADP detection	–	–	0.0291 µM
CN(C)c1ccc(/N=N/c2cccc(C(=O)OCCCCN)c2)cc1	IAPP	ThT displacement, ThT fluorescence	–	pH 7.4, preformed target-ThT complex, added: 5 µM ThT	0.53 µM
Cc1c(Cc2cncc(O[C@H](C)C(=O)O)c2)c2ccc(C(=O)N[C@@H](C)c3ccc(C(C)(C)C)cc3)cc2n1CC1CCC1	PPARA ligand-binding domain	reporter gene, luciferase reporter	HEK293T, Gal4-PPARα LBD	–	0.11 µM
O=C(Nc1cc(Cl)ccc1OCC1CC1)C(C(F)(F)F)C(F)(F)F	Chymotrypsinogen A	enzyme activity, inhibitor, fluorescence	–	–	12 µM
OC[C@@H]1[C@@H](O)[C@H](O)[C@@H](O)CN1CCCCCOCCC12CC3CC(CC(C3)C1)C2	GBA2	inhibitor, 4MU-β-D-glucopyranoside	HEK293T homogenates overexpressing GBA2	–	0.005 µM
COc1ccc([C@H]2N[C@H](C(=O)O)C(C)(C)S2)c(O)c1	B4GALT1 (Homo sapiens, UniProt P15291)	enzyme activity, inhibitor	–	–	43 µM
O=C1CC(c2ccccc2)N1S(=O)(=O)c1ccc(Cl)cc1 (stereo not drawn)	Chymotrypsinogen A	enzyme activity, inhibitor, fluorescence	–	–	3 µM
Cc1c(Cc2ccc(OC(C)C(=O)O)cc2)c2ccc(C(=O)N[C@@H](C)c3cccc(C(C)C)c3)cc2n1C (stereo partly drawn)	PPARA ligand-binding domain	reporter gene, luciferase reporter	HEK293T, Gal4-PPARα LBD	–	1.93 µM
O=C(Nc1ccc(F)cc1)Nc1ccc(C2=NNC(c3ccc(NC(=O)Nc4ccc(Cl)cc4)cc3)C2)cc1 (stereo not drawn)	AGER (Homo sapiens, UniProt Q15109)	–	–	–	> 100 µM
Cc1c(COc2cc(OCc3cccc(C#N)c3)c(CNC(CO)CO)cc2Cl)cccc1-c1cccc(OCCCCCCC(=O)NO)c1	HDAC2 (Homo sapiens, UniProt Q92769)	enzyme activity, inhibitor	–	–	0.0701 µM
CCc1cccc([C@H](C)NC(=O)c2ccc3c(Cc4cccc(OC(C)(C)C(=O)O)c4)c(C)n(C)c3c2)c1	PPARA ligand-binding domain	reporter gene, luciferase reporter	HEK293T, Gal4-PPARα LBD	–	26.4 µM
N#Cc1cc(C(=O)c2cc(Br)ccc2O)cn(-c2ccccc2Cl)c1=O	Adenylate cyclase type 10 (Homo sapiens, UniProt Q96PN6)	enzyme activity, inhibitor, RapidFire mass spectrometry	–	–	5.7 µM
CCCCCN1C[C@@H](O)[C@H](O)[C@H](O)[C@@H]1CO	GBA2	inhibitor, 4MU-β-D-glucopyranoside	HEK293T homogenates overexpressing GBA2	–	0.25 µM
Cc1c(Cc2ccc(O[C@H](C)C(=O)O)c(Cl)c2)c2ccc(C(=O)N[C@@H](C)c3ccc(C(C)(C)C)cc3)cc2n1C	PPARA ligand-binding domain	reporter gene, luciferase reporter	HEK293T, Gal4-PPARα LBD	–	3.35 µM
NC1(Cc2ccc(Cl)cc2)CCN(c2ncnc3[nH]ccc23)CC1	Trpm7 (Mus musculus, UniProt Q923J1, F924W)	calcium signal	–	–	~530 µM
CCOC(=O)c1ccc(/N=N/c2ccc(N(C)CCCN)cc2)cc1	IAPP	ThT displacement, ThT fluorescence	–	pH 7.4, preformed target-ThT complex, added: 5 µM ThT	0.4 µM
Cc1ccc(-c2ccc(COCCCCCN3C[C@H](O)[C@@H](O)[C@H](O)[C@H]3CO)cc2)cc1	GBA2	inhibitor, 4MU-β-D-glucopyranoside	HEK293T homogenates overexpressing GBA2	–	0.003 µM
C/C1=C\CC/C(C)=C/CC(C)(C)/C=C/C1	TRPV1 (Homo sapiens, UniProt Q8NER1, M514Q)	ion current, inhibitor, patch clamp	–	–	18 µM
CC(C)(C)OC(=O)N1CCC(Oc2ccc(Cl)cc2NC(=O)Nc2cnc(C#N)cn2)C1 (stereo not drawn)	CHEK1	enzyme activity, inhibitor	–	–	> 10 µM
O=C1/C(=N\c2ccc(Cl)cc2)c2ccccc2N1Cc1ccccc1	PIK3CG	enzyme activity, inhibitor, ADP detection	–	–	0.00136 µM
N#Cc1ccc(-c2ccc(NC(=O)C(C(F)(F)F)C(F)(F)F)cc2)cc1	Chymotrypsinogen A	enzyme activity, inhibitor, fluorescence	–	–	> 100 µM
OC[C@@H]1[C@@H](O)[C@H](O)[C@@H](O)CN1CCCCCOCC1CCCCC1	GBA2	inhibitor, 4MU-β-D-glucopyranoside	HEK293T homogenates overexpressing GBA2	–	0.004 µM

Excerpt of the above:
SMILES	target	assay	system	setting	IC50
Cc1c(Cc2cccc(OC(C)(C)C(=O)O)c2)c2ccc(C(=O)N[C@@H](C)c3cccc(C#N)c3)cc2n1C	PPARA ligand-binding domain	reporter gene, luciferase reporter	HEK293T, Gal4-PPARα LBD	–	85.9 µM
CN(C)c1ccc(/N=N/c2cccc(C(=O)OCCCCN)c2)cc1	IAPP	ThT displacement, ThT fluorescence	–	pH 7.4, preformed target-ThT complex, added: 5 µM ThT	0.53 µM
CCOc1cccc(NC(=O)C(C(F)(F)F)C(F)(F)F)c1	Chymotrypsinogen A	enzyme activity, inhibitor, fluorescence	–	–	> 100 µM
CN(C1=C(c2ccccc2)C(=O)NC1=O)c1ccc(Cl)cc1	Sensor histidine kinase AirS	autophosphorylation, inhibitor, BODIPY-FL-ATPγS in-gel fluorescence	–	lower bound of confidence interval	> 605 µM
O=C(NCC1CCOCC1)c1n[nH]cc1NC(=O)c1c(F)cccc1F	DYRK1B (Homo sapiens, UniProt Q9Y463)	target engagement in cells, BRET	–	–	2.4 µM
O=C1/C(=N\c2ccc(Cl)cc2)c2ccccc2N1Cc1ccccc1	PIK3CG	enzyme activity, inhibitor, ADP detection	–	–	0.00136 µM
